Published values from different studies.
CA12: Carbonic anhydrase 12 (CA12, Homo sapiens, UniProt O43570)
UniProt O43570, sequence (whole entry, looked up): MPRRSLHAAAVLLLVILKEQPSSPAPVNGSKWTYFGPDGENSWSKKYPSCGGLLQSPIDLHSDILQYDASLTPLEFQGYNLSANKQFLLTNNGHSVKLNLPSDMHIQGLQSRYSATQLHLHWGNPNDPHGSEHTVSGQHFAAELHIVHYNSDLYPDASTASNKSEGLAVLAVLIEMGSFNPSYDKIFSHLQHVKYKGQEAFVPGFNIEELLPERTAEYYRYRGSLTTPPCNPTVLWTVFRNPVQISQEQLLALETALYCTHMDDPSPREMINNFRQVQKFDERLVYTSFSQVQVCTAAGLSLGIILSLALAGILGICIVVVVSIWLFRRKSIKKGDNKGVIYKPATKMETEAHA
Chromobox protein homolog 8: Chromobox protein homolog 8 (Homo sapiens, UniProt Q9HC52)
UniProt Q9HC52, sequence (whole entry, looked up): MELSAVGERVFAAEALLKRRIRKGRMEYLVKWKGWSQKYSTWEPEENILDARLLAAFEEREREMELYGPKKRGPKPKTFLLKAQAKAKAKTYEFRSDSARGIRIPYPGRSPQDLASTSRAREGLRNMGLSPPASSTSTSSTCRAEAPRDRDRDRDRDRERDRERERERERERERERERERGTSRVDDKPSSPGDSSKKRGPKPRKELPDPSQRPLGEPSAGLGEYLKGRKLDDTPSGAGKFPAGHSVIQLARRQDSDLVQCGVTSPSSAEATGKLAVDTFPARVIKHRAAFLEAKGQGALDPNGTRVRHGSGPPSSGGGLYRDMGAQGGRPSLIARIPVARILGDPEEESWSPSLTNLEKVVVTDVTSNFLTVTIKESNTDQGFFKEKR
Capn2: Calpain-2 catalytic subunit (Capn2, Mus musculus, UniProt O08529)
UniProt O08529, sequence (whole entry, looked up): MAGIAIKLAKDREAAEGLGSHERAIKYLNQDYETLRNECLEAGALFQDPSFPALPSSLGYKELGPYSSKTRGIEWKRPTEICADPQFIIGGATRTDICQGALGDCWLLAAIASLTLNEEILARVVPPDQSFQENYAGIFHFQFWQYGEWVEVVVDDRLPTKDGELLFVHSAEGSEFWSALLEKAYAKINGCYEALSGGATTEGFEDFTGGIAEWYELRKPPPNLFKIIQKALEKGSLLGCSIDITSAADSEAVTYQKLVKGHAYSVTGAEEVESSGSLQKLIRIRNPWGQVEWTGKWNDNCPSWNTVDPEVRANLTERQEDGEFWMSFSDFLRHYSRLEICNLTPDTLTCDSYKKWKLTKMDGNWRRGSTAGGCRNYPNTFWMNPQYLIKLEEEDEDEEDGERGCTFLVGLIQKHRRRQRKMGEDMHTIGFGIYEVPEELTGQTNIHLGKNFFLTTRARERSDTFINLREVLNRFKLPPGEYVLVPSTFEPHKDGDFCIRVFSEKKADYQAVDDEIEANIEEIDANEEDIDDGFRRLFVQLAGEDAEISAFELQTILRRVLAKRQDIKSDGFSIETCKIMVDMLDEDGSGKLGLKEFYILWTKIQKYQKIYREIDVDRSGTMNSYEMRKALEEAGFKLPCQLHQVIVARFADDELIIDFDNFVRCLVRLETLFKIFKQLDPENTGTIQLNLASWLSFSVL
UniProt O95551, sequence (whole entry, looked up): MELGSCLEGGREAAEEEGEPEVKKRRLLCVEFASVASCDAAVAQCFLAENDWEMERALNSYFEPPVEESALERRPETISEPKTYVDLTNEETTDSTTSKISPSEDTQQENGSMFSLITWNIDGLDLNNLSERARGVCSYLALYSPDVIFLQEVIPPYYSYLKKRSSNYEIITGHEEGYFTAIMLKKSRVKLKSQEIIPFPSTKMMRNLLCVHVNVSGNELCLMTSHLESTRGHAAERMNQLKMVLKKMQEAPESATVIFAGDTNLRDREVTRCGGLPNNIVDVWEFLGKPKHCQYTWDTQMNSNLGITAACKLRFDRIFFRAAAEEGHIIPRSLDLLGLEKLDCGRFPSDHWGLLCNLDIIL
UniProt P08173, sequence (whole entry, looked up): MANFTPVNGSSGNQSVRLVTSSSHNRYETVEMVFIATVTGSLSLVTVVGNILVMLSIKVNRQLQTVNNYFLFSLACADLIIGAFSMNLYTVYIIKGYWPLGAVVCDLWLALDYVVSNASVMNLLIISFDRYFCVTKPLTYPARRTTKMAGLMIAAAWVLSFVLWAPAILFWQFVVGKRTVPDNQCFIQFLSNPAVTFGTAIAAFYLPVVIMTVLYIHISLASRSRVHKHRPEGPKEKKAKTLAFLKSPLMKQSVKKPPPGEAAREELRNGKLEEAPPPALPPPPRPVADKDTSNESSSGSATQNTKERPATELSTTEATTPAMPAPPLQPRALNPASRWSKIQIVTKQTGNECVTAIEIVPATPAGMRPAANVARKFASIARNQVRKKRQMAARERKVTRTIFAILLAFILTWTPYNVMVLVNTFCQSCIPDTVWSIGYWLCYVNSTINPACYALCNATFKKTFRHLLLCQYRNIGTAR
UniProt Q9NR56, sequence (whole entry, looked up): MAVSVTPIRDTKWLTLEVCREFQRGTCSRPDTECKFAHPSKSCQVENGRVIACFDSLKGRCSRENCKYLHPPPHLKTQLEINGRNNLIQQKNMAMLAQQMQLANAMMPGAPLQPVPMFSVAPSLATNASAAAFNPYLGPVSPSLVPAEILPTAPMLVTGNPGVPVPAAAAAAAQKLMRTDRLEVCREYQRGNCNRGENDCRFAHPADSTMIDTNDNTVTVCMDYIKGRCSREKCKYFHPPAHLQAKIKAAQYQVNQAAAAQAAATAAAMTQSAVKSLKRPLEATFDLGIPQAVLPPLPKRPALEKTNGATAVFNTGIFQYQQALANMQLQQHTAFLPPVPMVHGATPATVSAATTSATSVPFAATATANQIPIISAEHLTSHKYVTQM
UniProt P10636, sequence (whole entry, looked up): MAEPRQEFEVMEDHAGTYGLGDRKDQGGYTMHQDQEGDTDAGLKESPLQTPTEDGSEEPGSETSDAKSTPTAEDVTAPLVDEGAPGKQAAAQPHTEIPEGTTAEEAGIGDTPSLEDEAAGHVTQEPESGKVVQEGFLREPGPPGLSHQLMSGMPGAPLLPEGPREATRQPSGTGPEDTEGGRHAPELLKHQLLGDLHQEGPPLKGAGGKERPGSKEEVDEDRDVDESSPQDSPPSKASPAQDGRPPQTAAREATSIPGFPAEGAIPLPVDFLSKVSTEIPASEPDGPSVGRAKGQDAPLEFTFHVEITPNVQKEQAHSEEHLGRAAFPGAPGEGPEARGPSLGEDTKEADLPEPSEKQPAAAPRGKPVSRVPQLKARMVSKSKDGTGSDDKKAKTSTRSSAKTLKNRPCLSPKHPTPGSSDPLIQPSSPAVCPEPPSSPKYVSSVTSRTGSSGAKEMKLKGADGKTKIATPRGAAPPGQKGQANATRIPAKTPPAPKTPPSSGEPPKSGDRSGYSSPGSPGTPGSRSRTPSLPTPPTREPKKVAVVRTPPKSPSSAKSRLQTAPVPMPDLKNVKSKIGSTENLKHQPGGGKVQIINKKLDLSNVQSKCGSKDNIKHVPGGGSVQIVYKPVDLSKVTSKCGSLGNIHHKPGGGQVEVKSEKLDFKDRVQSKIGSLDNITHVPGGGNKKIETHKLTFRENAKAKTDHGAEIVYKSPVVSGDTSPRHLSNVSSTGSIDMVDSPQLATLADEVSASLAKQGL
UniProt P00742, sequence (whole entry, looked up): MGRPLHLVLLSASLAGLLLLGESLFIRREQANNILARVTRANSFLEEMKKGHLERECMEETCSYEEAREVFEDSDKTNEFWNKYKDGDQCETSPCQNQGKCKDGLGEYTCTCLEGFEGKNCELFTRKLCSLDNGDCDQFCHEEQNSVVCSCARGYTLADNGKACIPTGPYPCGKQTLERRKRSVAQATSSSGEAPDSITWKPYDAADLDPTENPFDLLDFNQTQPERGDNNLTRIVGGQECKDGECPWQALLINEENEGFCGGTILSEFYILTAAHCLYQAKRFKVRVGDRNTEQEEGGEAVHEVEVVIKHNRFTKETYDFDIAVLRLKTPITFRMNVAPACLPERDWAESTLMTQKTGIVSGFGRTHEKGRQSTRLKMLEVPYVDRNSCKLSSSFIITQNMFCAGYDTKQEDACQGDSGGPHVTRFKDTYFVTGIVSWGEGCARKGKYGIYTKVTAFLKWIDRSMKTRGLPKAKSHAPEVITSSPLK
UniProt O95503, sequence (whole entry, looked up): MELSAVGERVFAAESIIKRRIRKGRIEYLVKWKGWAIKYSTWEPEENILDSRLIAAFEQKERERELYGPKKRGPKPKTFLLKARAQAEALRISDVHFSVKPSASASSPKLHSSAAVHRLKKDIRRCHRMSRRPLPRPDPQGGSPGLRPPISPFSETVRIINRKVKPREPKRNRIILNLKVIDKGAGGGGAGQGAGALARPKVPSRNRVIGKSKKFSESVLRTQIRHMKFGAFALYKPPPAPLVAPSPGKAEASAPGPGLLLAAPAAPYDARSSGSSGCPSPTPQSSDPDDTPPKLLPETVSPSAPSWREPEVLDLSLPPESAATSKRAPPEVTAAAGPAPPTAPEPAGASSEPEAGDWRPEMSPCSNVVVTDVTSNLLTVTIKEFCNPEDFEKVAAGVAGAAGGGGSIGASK

COc1ccccc1/C=N/NC(=O)CSc1nc2ccccc2c(=O)n1CCc1ccc(S(N)(=O)=O)cc1 — selectivity ratio (CA12; inhibitor, stopped-flow; relative to: Ki hCA II over Ki hCA XII): 2.85
OC(Cc1cc(-c2ccc(C(O)C(F)(F)F)s2)sc1-c1ccc(-c2sc(-c3ccc(C(O)C(F)(F)F)s3)cc2CC(O)C(F)(F)F)s1)C(F)(F)F (stereo not drawn) — selectivity ratio (Microtubule-associated protein tau, 0N4R isoform, aggregated (MAPT, Homo sapiens, UniProt P10636); tau 20% sucrose fraction, Aβ40 200 min; relative to: Kd Aβ40 over Kd tau): 50 fold
NS(=O)(=O)c1c(F)c(F)c(S(=O)(=O)CCO)c(N[C@H]2CCc3ccccc32)c1F — selectivity ratio (CA12; thermal shift; relative to: Kd CA XII over Kd CA II): 0.5
CC(C)C[C@H](NC(=O)[C@@H](NC(=O)[C@H](Cc1ccccc1)NC(=O)c1ccc(C(C)(C)C)cc1)C(C)C)C(=O)N[C@@H](CCCCN(C)C1CC2CCC1C2)C(=O)N[C@@H](CO)C(N)=O (stereo partly drawn) — selectivity ratio (Chromobox protein homolog 8; TR-FRET; relative to: CBX8 over CBX7): 21 fold
CCN(CC)CCCC[C@H](NC(=O)[C@@H](NC(=O)[C@H](C)NC(=O)[C@H](Cc1ccccc1)NC(=O)c1ccc(C(F)(F)F)cc1)C1CCCC1)C(=O)N[C@@H](CO)C(N)=O — selectivity ratio (Chromobox protein homolog 6 (Homo sapiens, UniProt O95503); competitive fluorescence polarization; relative to: Cbx7 over Chromobox protein homolog 6): 5.7 fold
Cc1ccc(C(=O)Nc2ccc(CP(=O)(O)O)cc2CP(=O)(O)O)cc1NC(=O)c1cccc(NC(=O)Nc2cccc(C(=O)Nc3cc(C(=O)Nc4ccc(CP(=O)(O)O)cc4CP(=O)(O)O)ccc3C)c2)c1 — selectivity ratio (F10 (Homo sapiens, UniProt P00742); enzyme activity, inhibitor; relative to: factor XIa over factor Xa): > 14 fold
COc1ccc(/C(C)=N/NC(=O)CSc2nc3ccccc3c(=O)n2CCc2ccc(S(N)(=O)=O)cc2)cc1 — selectivity ratio (CA12; inhibitor, stopped-flow; relative to: Ki hCA I over Ki hCA XII): 10.9
NS(=O)(=O)c1cc(-c2ccccc2)cc(-c2ccccc2)c1 — selectivity ratio (CA12; thermal shift; relative to: Kd CA II over Kd CA XII): 70
C[C@H](NC(=O)[C@H](Cc1ccccc1)NC(=O)c1ccc(C(C)(C)C)cc1)C(=O)N[C@H](C(=O)N[C@@H](CCCC[N+](C)(C)C)C(=O)N[C@@H](CO)C(N)=O)C1CCCC1 — selectivity ratio (Chromobox protein homolog 8; competitive fluorescence polarization; relative to: Cbx7 over Chromobox protein homolog 8): 28 fold
CCC(NC(=O)C(CC(C)C)NC(=O)Nc1ccncc1)C(=O)C(=O)NCc1cc(OC)cc(OC)c1 (stereo not drawn) — selectivity ratio (Capn2; mouse pons-cerebellum membranes; together with: calcium 2 mM; relative to: IC50 calpain-1 over calpain-2): 0.7
COc1cc(-c2ccnc3nc(Nc4ccc(S(N)(=O)=O)cc4)nn23)cc(OC)c1OC — selectivity ratio (CA12; stopped-flow CO2 hydrase; relative to: Ki hCA II over Ki CA12): 5.3
COc1cccc(/C=N/NC(=O)CSc2nc3ccccc3c(=O)n2CCc2ccc(S(N)(=O)=O)cc2)c1 — selectivity ratio (CA12; inhibitor, stopped-flow; relative to: Ki hCA II over Ki hCA XII): 1.09
NS(=O)(=O)c1c(F)c(F)c(SCCc2ccc(C(=O)O)cc2)c(F)c1F — selectivity ratio (CA12; thermal shift; relative to: Kd CA XII over Kd CA II): 42
CN1CCC=C(c2nsnc2OCCCN2CCN(CCCCC3CCN(CC(=O)N4c5ccccc5NC(=O)c5ccccc54)CC3)CC2)C1 — selectivity ratio (CHRM4 (Homo sapiens, UniProt P08173); radioligand competition binding; CHO cells; relative to: Ki M4 over Ki M2): 29
NS(=O)(=O)c1c(F)c(F)c(S(=O)(=O)CCc2ccccc2)c(N[C@H]2CCc3ccccc32)c1F — selectivity ratio (CA12; thermal shift; relative to: Kd CA XII over Kd CA II): 14
C[C@H](NC(=O)[C@H](Cc1ccccc1)NC(=O)c1ccc(C(F)(F)F)cc1)C(=O)N[C@H](C(=O)N[C@@H](CCCC[N+](C)(C)C)C(=O)N[C@@H](CO)C(N)=O)C1CCCC1 — selectivity ratio (Chromobox protein homolog 8; binding, isothermal titration calorimetry; relative to: Cbx7 over Chromobox protein homolog 8 Kd): 7.3 fold
CN(C)CCNC(=O)c1cccc2c(NCCCCc3c(N)nc(N)nc3N)c3ccccc3nc12 — selectivity ratio (Muscleblind-like protein 1, with (CCUG)6 RNA (Homo sapiens, UniProt Q9NR56); RNA-protein binding, inhibitor, gel shift; relative to: MBNL1-(CCUG)6 over MBNL1-(CUG)12): ~7 fold
NS(=O)(=O)c1c(F)c(F)c(SCCc2ccccc2)c(F)c1N1CCOCC1 — selectivity ratio (CA12; thermal shift; relative to: Kd CA XII over Kd CA II): 17
CCC(NC(=O)C(CC(C)C)NC(=O)NCc1ccccc1)C(=O)C(=O)NCc1cccc(OC)c1 (stereo not drawn) — selectivity ratio (Capn2; mouse pons-cerebellum membranes; together with: calcium 2 mM; relative to: IC50 calpain-1 over calpain-2): 9.2
NS(=O)(=O)c1c(F)c(F)c(S(=O)(=O)CCO)c(NC2CCCCCCCCCCC2)c1F — selectivity ratio (CA12; thermal shift; relative to: Kd CA XII over Kd CA II): 0.1
N#Cc1ccc(-c2ccc(/C=N/OCc3ccc(-c4nc5cc(-c6ccccc6)ccn5c4Nc4ccc(C(=O)O)cc4)cc3)cc2)nc1 — selectivity ratio (TDP2 (Homo sapiens, UniProt O95551); relative to: TDP1 potency over TDP2 potency): 74 fold
CCC(NC(=O)C(CC(C)C)NC(=O)CCc1ccncc1)C(=O)C(=O)NCc1cc(OC)cc(OC)c1 (stereo not drawn) — selectivity ratio (Capn2; mouse pons-cerebellum membranes; together with: calcium 2 mM; relative to: IC50 calpain-1 over calpain-2): 2.1
COc1cccc(/C(C)=N/NC(=O)CSc2nc3ccccc3c(=O)n2CCc2ccc(S(N)(=O)=O)cc2)c1 — selectivity ratio (CA12; inhibitor, stopped-flow; relative to: Ki hCA I over Ki hCA XII): 20.4
CCC(NC(=O)C(CC(C)C)NC(=O)NCc1ccccc1)C(=O)C(=O)NCc1cc(OC)cc(OC)c1 (stereo not drawn) — selectivity ratio (Capn2; mouse pons-cerebellum membranes; together with: calcium 2 mM; relative to: IC50 calpain-1 over calpain-2): 13
C[C@@H](N)C1CCN(S(=O)(=O)c2cccc3cnccc23)CC1 — selectivity ratio (ROCK2 (Homo sapiens, UniProt O75116); enzyme activity, inhibitor, radiometric filter binding; together with: ATP at Km; relative to: IC50 ROCK1 over IC50 target): 44 fold
NS(=O)(=O)c1c(F)c(F)cc(F)c1NC1CCCCCCC1 — selectivity ratio (CA12; thermal shift; relative to: Kd CA XII over Kd CA II): 3.1
CCC(NC(=O)C(CC(C)C)NC(=O)CCc1ccc(C#N)cc1)C(=O)C(=O)NCc1cc(OC)cc(OC)c1 (stereo not drawn) — selectivity ratio (Capn2; mouse pons-cerebellum membranes; together with: calcium 2 mM; relative to: IC50 calpain-1 over calpain-2): 10.1

Excerpt of the above:
CCC(NC(=O)C(CC(C)C)NC(=O)CCc1ccc(C#N)cc1)C(=O)C(=O)NCc1cc(OC)cc(OC)c1 (stereo not drawn) — selectivity ratio (Capn2; mouse pons-cerebellum membranes; together with: calcium 2 mM; relative to: IC50 calpain-1 over calpain-2): 10.1
NS(=O)(=O)c1c(F)c(F)c(SCCc2ccccc2)c(F)c1N1CCOCC1 — selectivity ratio (CA12; thermal shift; relative to: Kd CA XII over Kd CA II): 17
